Published values gathered from unrelated publications.
Lines come from different studies, so protocols differ. Several values in a cell are separate wells, animals, samples, runs or records. ± marks the error that the study gave.
ABL1 Q252H: Tyrosine-protein kinase ABL1 (ABL1, Homo sapiens, UniProt P00519, Q252H)
UniProt P00519, sequence (whole entry, unmodified, looked up): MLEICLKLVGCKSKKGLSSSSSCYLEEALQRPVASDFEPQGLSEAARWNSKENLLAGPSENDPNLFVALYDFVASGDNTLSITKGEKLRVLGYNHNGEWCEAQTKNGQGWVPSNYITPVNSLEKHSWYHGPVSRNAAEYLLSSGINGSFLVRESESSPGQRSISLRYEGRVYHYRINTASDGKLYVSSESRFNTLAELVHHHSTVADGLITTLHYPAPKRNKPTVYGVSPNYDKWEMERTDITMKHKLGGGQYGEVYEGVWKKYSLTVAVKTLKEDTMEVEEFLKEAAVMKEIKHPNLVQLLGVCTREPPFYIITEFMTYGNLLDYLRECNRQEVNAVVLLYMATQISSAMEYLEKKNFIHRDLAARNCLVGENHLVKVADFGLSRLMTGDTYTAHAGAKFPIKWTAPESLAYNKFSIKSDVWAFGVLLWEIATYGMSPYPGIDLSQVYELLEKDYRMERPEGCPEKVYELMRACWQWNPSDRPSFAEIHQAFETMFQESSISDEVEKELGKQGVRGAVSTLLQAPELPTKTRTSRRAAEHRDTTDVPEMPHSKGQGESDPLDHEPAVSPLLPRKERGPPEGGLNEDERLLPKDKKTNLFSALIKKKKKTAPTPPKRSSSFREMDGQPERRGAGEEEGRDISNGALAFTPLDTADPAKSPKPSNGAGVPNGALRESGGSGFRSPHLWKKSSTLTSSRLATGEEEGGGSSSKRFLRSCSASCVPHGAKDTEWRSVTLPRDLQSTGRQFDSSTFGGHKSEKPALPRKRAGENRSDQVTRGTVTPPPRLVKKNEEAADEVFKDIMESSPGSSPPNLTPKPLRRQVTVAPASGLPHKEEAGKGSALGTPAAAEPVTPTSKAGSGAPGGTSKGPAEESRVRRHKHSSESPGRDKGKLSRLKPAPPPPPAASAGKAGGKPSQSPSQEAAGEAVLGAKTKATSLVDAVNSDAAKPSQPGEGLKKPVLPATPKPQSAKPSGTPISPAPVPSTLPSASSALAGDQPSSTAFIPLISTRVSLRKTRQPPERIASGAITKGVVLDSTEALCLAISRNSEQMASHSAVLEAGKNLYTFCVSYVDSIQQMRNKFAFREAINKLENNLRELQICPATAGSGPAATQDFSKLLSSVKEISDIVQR
USP13 ZnF-UBD domain: Ubiquitin carboxyl-terminal hydrolase 13, ZnF-UBD domain (USP13, Homo sapiens, UniProt Q92995)
UniProt Q92995, sequence (whole entry, looked up): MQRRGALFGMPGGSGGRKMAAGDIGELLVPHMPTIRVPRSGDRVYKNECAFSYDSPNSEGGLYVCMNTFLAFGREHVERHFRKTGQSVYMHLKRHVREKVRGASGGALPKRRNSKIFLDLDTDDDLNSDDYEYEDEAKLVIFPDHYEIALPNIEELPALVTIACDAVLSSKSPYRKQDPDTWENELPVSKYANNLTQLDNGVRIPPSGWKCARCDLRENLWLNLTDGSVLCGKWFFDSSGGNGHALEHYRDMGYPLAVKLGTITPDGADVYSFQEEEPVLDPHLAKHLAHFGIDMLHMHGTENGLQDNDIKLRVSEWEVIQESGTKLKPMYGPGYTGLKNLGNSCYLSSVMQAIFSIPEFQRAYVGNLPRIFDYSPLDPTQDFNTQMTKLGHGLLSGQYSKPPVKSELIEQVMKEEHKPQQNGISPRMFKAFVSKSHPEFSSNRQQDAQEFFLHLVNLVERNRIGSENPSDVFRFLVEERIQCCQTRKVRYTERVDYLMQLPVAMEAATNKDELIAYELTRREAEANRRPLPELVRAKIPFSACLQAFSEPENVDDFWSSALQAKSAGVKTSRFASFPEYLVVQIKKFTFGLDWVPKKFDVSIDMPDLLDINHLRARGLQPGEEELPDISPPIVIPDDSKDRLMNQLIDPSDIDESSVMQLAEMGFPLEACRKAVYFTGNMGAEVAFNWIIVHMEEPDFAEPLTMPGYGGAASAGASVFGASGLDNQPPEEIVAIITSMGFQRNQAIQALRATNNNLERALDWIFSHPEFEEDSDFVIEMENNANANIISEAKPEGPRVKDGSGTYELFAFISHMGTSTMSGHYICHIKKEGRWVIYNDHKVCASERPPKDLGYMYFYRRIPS
Aryl hydrocarbon receptor: Aryl hydrocarbon receptor (Danio rerio, UniProt Q9YGV3)
UniProt O15305, sequence (whole entry, looked up): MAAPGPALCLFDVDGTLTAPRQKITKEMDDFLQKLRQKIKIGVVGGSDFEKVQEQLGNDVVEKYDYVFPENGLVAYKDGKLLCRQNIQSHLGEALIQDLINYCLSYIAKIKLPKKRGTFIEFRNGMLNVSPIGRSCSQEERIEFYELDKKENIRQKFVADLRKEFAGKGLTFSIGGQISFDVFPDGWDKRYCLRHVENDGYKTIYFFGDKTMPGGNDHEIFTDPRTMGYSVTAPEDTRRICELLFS
UniProt Q01105, sequence (whole entry, unmodified, looked up): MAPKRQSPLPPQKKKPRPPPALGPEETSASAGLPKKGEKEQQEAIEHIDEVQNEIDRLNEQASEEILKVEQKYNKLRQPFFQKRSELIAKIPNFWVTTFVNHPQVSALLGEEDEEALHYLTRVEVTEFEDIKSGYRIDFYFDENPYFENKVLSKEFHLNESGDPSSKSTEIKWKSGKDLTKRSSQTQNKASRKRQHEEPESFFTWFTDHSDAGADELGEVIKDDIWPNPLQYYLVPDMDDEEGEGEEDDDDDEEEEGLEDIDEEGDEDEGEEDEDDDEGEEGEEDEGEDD
UniProt P51575, sequence (whole entry, unmodified, looked up): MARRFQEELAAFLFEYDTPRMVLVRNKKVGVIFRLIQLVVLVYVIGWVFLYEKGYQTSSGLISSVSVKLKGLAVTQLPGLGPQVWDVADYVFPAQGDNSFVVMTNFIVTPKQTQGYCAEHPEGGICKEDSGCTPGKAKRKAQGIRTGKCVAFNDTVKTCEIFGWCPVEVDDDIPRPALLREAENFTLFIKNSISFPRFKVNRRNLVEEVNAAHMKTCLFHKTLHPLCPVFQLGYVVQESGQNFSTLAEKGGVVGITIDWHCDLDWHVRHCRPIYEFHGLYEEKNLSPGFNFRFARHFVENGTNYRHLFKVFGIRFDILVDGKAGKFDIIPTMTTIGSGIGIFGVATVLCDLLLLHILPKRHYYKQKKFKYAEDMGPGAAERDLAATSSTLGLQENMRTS
UniProt P51531, sequence (whole entry, unmodified, looked up): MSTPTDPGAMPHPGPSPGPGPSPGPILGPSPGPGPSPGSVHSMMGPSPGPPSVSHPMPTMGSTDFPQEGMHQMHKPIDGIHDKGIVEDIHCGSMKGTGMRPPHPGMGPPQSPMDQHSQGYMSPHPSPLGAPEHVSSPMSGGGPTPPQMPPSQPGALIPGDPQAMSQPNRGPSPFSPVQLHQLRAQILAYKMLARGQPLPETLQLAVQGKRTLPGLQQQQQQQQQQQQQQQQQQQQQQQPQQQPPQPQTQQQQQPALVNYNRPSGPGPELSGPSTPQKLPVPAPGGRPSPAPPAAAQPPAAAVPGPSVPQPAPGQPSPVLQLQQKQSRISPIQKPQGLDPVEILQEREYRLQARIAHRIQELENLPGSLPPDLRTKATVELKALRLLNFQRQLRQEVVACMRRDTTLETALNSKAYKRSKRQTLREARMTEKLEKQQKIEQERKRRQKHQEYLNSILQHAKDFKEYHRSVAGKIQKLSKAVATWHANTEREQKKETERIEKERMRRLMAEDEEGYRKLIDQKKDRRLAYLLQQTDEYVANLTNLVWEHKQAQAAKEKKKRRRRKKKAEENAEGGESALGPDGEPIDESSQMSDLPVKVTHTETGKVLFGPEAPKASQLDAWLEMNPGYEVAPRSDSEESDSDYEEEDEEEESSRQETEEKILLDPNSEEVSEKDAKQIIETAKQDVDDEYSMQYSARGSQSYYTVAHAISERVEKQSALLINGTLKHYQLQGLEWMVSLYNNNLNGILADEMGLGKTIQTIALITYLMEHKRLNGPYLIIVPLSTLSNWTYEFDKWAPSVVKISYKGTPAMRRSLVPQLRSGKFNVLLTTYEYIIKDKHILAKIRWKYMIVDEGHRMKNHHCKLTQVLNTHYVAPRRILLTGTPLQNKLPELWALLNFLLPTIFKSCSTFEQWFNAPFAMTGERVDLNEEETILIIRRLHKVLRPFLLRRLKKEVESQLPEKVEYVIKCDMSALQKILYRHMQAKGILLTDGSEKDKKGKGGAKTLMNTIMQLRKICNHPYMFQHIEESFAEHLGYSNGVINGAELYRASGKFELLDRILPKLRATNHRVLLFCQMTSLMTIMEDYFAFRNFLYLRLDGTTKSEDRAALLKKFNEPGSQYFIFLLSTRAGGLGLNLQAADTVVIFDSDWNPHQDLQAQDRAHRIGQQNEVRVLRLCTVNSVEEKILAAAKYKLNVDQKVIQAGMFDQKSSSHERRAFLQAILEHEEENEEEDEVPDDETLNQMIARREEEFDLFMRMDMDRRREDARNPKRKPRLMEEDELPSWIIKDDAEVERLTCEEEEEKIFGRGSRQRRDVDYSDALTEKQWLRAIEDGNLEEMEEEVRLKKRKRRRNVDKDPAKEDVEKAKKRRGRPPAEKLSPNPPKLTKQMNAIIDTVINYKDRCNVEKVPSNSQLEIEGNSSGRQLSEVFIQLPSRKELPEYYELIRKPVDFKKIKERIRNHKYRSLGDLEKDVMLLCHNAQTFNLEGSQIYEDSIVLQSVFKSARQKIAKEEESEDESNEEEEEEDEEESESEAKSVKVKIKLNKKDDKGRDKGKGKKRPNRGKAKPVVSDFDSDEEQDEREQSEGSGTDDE
UniProt Q13188, sequence (whole entry, looked up): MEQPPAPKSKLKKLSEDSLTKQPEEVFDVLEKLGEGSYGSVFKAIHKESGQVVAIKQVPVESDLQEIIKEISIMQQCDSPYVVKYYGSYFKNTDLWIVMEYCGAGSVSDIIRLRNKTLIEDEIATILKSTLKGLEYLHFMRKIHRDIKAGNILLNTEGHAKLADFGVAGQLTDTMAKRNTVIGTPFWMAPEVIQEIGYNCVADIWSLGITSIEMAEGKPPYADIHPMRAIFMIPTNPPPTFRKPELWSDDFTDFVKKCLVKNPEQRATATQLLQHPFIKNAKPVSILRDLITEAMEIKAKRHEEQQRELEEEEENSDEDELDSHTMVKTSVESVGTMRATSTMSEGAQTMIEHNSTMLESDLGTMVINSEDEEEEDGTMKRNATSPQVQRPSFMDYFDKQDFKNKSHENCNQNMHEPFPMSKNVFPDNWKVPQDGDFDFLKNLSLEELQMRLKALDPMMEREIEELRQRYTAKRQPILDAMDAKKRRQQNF

| Structure (SMILES) | tested on | test | system | setting | scale | endpoint | result |
| --- | --- | --- | --- | --- | --- | --- | --- |
| Cc1cc(NS(=O)(=O)c2ccc(N)cc2)no1 | Dihydropteroate synthase (folP, Bacteria, UniProt P0AC13) | CETSA HiBiT | Escherichia coli, cell lysate | concentration not given | relative to: DMSO | melting temperature shift | -0.38 °C |
| CC[C@@H]1[C@H](F)C(=O)N[C@@H]1COc1nccc2cc(C(N)=O)c(OC)cc12 | Serine/threonine-protein kinase 3 (STK3, Homo sapiens, UniProt Q13188) | ATP-site probe binding, ActivX profiling, refers to: MST2 | THP-1 cell lysate | 0.2 mM, Lys1 site | – | inhibition | -9.3% |
| COc1ccc(Cl)cc1C(=O)NCCc1ccc(S(=O)(=O)NC(=O)NC2CCCCC2)cc1 | Solute carrier family 22 member 6 (SLC22A6, Homo sapiens, UniProt Q4U2R8) | – | cells expressing hOAT1 | added: 6-carboxyfluorescein | relative to: compound over cidofovir | affinity ratio | ~60 fold |
| N[C@H]1CCN(c2nccc(-c3cnn4ncccc34)n2)C1 | ABL1 Q252H | KINOMEscan | – | 1 µM | relative to: control | remaining binding | 74% |
| CCCCCCCCCCCCC/C=C/[C@@H](O)[C@H](CO)NC(=O)CCCCCCCCCCCCCCCCCCCCCCCCC | Protein SET (SET, Homo sapiens, UniProt Q01105) | lipid binding, GFP pull-down LC-MS/MS | A549 overexpressing GFP-tagged protein | ER-targeted construct, unit not given | relative to: vector-transfected cells | bound endogenous lipid | 0.4 |
| Cn1cc(-c2ccc(-c3cncc(Cl)c3N3CCC4(CCNC4=O)CC3)cc2)cn1 | COLO 205 | gene expression, microarray, refers to: SDC4 mRNA | – | concentration not given, 2 h | relative to: untreated cells | log2 fold change | 2.76 |
| O=C(O)CNc1ccc2nncn2n1 | USP13 ZnF-UBD domain | – | – | – | – | Kd | 780 µM |
| N[C@H](COP(=O)(O)O)Cc1c[nH]cn1 | Gamma1 | substrate, coupled phosphate release | – | – | – | Km | 69 ± 10 µM |
| O=C(COP(=O)(O)O)[C@@H](O)[C@H](O)[C@H](O)COP(=O)(O)O | Phosphomannomutase 2 (PMM2, Homo sapiens, UniProt O15305) | thermal proteome profiling | HepG2 cell lysate | concentration not given, 57 over 37 °C | relative to: compound over control | thermal stability ratio | 3.56 and 5.43 and 5.38 |
| Cc1ccc(N2CC(C(N)=O)CC2=O)cc1 (centres unmarked) | DDB1- and CUL4-associated factor 7 (Homo sapiens, UniProt P61962) | binding, affinity selection mass spectrometry | – | – | relative to: other proteins in batch | fold enrichment | 1 |
| Cc1cc2c(cc1N1C(=O)c3cccc4c(Cl)ccc(c34)C1=O)n(C)c(=O)n2C | Histone acetyltransferase p300 (EP300, Homo sapiens, UniProt Q09472) | – | – | 10 µM | – | delta Tm | 3.5 °C |
| Cc1ccc(-c2cc(C(=O)NCCN(C)C)c3cc(Br)ccc3n2)o1 | Trypanothione reductase (TPR, Trypanosoma brucei brucei, UniProt P39051) | enzyme activity, inhibitor, DTNB-coupled colourimetric | Trypanosoma brucei | – | – | Hill slope | 1.13 ± 0.05 |
| CC(=O)c1ccc(C)cc1 | Or8a1 (Mus musculus, UniProt Q60893) | odorant-evoked current, agonist | isolated olfactory neurons | – | relative to: acetophenone saturated response | Emax | 100 ± 1% |
| CN(C)c1ncc(F)c(-c2cnn3ncccc23)n1 | Tyrosine-protein kinase ABL1 (ABL1, Homo sapiens, UniProt P00519, T315I) | KINOMEscan | – | 1 µM | relative to: control | remaining binding | 68% |
| CC(C)OCCn1c(=S)[nH]c(=O)c2[nH]ccc21 | Myeloperoxidase (MPO, Homo sapiens, UniProt P05164) | enzyme activity, inhibitor, H2O2 electrode | – | 0.68 µM | – | H2O2 consumption | 21% |
| COc1cc(-c2cc(C(C)=O)n3ccccc23)cc(OC)c1Cn1ccnc1 | SWI/SNF-related matrix-associated actin-dependent regulator of chromatin subfamily A member 2, isoform B (SMARCA2, Homo sapiens, UniProt P51531) | – | – | – | – | ΔTm | 0.3 °C |
| O=C(NCCCN1CCOCC1)c1ccc(Nc2nccc(-c3cc4ccccc4s3)n2)cc1 | Protein kinase 6 (Plasmodium falciparum, UniProt Q8IDW1) | binding, KinaseSeeker split luciferase | – | – | – | ligand efficiency | 0.28 |
| [H]/N=C(/N)NCC(=O)O | Sodium- and chloride-dependent taurine transporter (SLC6A6, Homo sapiens, UniProt P31641, L306A) | binding, microscale thermophoresis | – | 977 nM, room temperature, added: 50 nM labelled protein | higher = more binding | normalised MST signal | -0.0548 |
| CCC1(O)CCCN(C(=O)c2ccc(-c3ccc(F)c(NC(=O)CCl)c3)cc2)C1 (centres unmarked) | DNA dC->dU-editing enzyme APOBEC-3B, C-terminal domain (Homo sapiens, UniProt Q9UH17) | covalent modifier, intact protein mass spectrometry, refers to: adduct +26104 Da | – | 25 µM, 1 h, 1-fold molar excess | – | protein adduct | 0% |

| Structure (SMILES) | tested on | test | system | setting | scale | endpoint | result |
| --- | --- | --- | --- | --- | --- | --- | --- |
| CCCCCCCCCCCCC/C=C/[C@@H](O)[C@H](CO)NC(=O)CCCCCCCCCCCCCCCCCCCCC | Protein SET (SET, Homo sapiens, UniProt Q01105, K222D) | lipid binding, GFP pull-down LC-MS/MS | A549 overexpressing GFP-tagged protein | – | relative to: eluate plus flow-through | lipid fraction bound | 2.8% |
| O=C(O)c1ccc(Nc2ncc3c(n2)-c2ccc(Cl)cc2C(c2c(F)cccc2F)=NC3)cc1 | human WNK2(h) | kinase activity | – | 1 µM | – | remaining activity | 109% |
| O=C1C[C@@H](c2ccccc2)Oc2cc(O)cc(O)c21 | Aryl hydrocarbon receptor | reporter gene, agonist, luciferase reporter | ZF-4 | 30000 µM | relative to: vehicle control | fold change | 0.594 |
| O=c1nc(SCc2cc(F)cc(C(F)(F)F)c2)nc(SCc2ccc3sccc3c2)[nH]1 | DNA topoisomerase 2-alpha (TOP2A, Homo sapiens, UniProt P11388) | decatenation | – | 125 µM | – | mean decatenated DNA | 1.73% |
| Nc1nc2c(ncn2[C@@H]2O[C@H](COP(=O)(O)O)[C@@H](O)[C@H]2O)c(=O)[nH]1 | GUK1 (Homo sapiens, UniProt Q16774) | ITC | – | concentration not given | – | -TΔS of binding | 2.57 kcal/mol |
| N[C@@H](CC(=O)O)C(=O)O | N-acetylaspartate synthetase (NAT8L, Homo sapiens, UniProt Q8N9F0) | substrate, CPM fluorescence | – | 30 min | – | Km | 237 µM |
| C=CC(=O)N1CCC(COCC(=O)N2CCN(c3nc(-c4cnc(N)nc4C(F)F)nc(N4CCOC[C@@H]4C)n3)CC2)CC1 | NUAK family SNF1-like kinase 2 (NUAK2, Homo sapiens, UniProt Q9H093) | KINOMEscan | – | 1 µM | relative to: DMSO control | remaining binding | 100% |
| CN(C)C(=O)c1cccc(C(=O)c2c[nH]c3ccccc23)n1 | Aryl hydrocarbon receptor (AHR, Homo sapiens, UniProt P35869) | reporter gene, agonist, XRE luciferase | HepG2 | – | relative to: ITE | Emax | 37 ± 1% |
| Nc1nnc(-c2ccccc2O)cc1N1CCN(Cc2ccc(OCCOCCNc3cccc4c3C(=O)N(C3CCC(=O)NC3=O)C4=O)c(F)c2)CC1 (centres unmarked) | SWI/SNF-related matrix-associated actin-dependent regulator of chromatin subfamily A member 2 (SMARCA2, Homo sapiens, UniProt P51531) | immunohistochemistry | mouse, NCI-H1568 xenograft, tumour | dose not given | relative to: vehicle | reduction in positive cells | 51% |
| Nc1ncnc2c1ncn2[C@@H]1O[C@H](COP(=O)(O)CP(=O)(O)OP(=O)(O)O)[C@@H](O)[C@H]1O | P2X purinoceptor 1 (P2RX1, Homo sapiens, UniProt P51575, K215A) | saturation binding | HEK293 | 79 nM | – | specific binding | 4040 CCPM and 4770 CCPM |
| Nc1nc(=O)n([C@@H]2O[C@H](CO)[C@@H](O)[C@H]2F)cc1-c1ccco1 | Cytidine deaminase (CDA, Homo sapiens, UniProt P32320) | deamination, substrate, real-time fluorescence | – | pH 7.4, 37 °C | – | kcat | 2.5 to 3.3 s⁻¹ |
| CCCCC[C@H](O)/C=C/[C@H]1C(=O)C[C@H](O)[C@@H]1C/C=C\CCCC(=O)O | Prostaglandin D2 receptor (PTGDR, Homo sapiens, UniProt Q13258, M112A) | agonist, ONE-GO BRET | – | 0.0003052 µM (306 pM) | relative to: wild-type receptor maximum | Gs protein activation | 3.66% |
| CCCCC[C@H](O)/C=C/[C@H]1[C@H](O)CC(=O)[C@@H]1C/C=C\CCCC(=O)O | Prostaglandin E2 receptor EP1 subtype (PTGER1, Homo sapiens, UniProt P34995, F334A/G92A/P39A) | IP1 accumulation, agonist | AD293 | – | – | EC50 | 1.08 µM |
| COc1cc(Nc2ncc3c(n2)-c2ccc(Cl)cc2C(c2c(F)cccc2OC)=NC3)ccc1C(=O)O | MYLK2 | kinase activity | – | 1 µM | – | remaining activity | 98% |
| CN(C)c1nccc(-c2cnc3ncccn23)n1 | ABL1 Q252H | KINOMEscan | – | 1 µM | – | remaining binding | 73% |
| c1ccc2c(c1)-c1cccc3c1c-2cc1ccccc13 | Aryl hydrocarbon receptor | reporter gene, agonist, luciferase reporter | ZF-4 | 10000 µM | relative to: vehicle control | fold change | 8.29 |
| COc1ccccc1C(=O)C#Cc1ccc(F)c(F)c1 | HTH-type quorum-sensing regulator RhlR (rhlR, Pseudomonas aeruginosa, UniProt P54292) | receptor binding | – | concentration not given, 1.5 h, added: BHL at 1:1 ratio | relative to: control | binding | 50% |
| O=C(O)CCn1sc2ccccc2c1=O | USP13 ZnF-UBD domain | – | – | – | – | Kd | > 1000 µM |
| CC[C@H](C)[C@H](NC(=O)[C@H](CCCNC(=N)N)NC(=O)[C@H](Cc1c[nH]cn1)NC(=O)[C@H](CCCNC(=N)N)NC(=O)[C@H](CC(=O)O)NC(=O)[C@H](CC(=O)O)NC(=O)[C@@H](NC(=O)[C@H](CC(=O)O)NC(=O)[C@@H]1CCCN1C(=O)[C@@H](N)CC(C)C)[C@@H](C)O)C(=O)N[C@@H](CCC(=O)O)C(=O)N[C@@H](CCC(=O)O)C(=O)N[C@@H](CCCCN)C(=O)N[C@@H](CCCNC(=N)N)C(=O)N[C@@H](CCCCN)C(=O)N[C@@H](CCCNC(=N)N)C(=O)N[C@H](C(=O)N[C@@H](Cc1ccc(O)cc1)C(=O)N[C@@H](CCC(=O)O)C(=O)N[C@H](C(=O)N[C@@H](Cc1ccccc1)C(=O)N[C@@H](CCCCN)C(=O)N[C@@H](CO)C(=O)N[C@H](C(=O)N[C@@H](CCSC)C(=O)N[C@@H](CCCCN)C(=O)N[C@@H](CCCCN)C(=O)N[C@@H](CO)C(=O)N1CCC[C@H]1C(=O)N[C@@H](C)C(=O)N[C@@H](CC(N)=O)C(=O)NCC(=O)N1CCC[C@H]1C(=O)O)[C@@H](C)CC)[C@@H](C)O)[C@@H](C)O | NF-kappa-B inhibitor alpha (Homo sapiens, UniProt P25963) | binding, ITC | – | pH 7.5, 293 K, 50 mM NaCl | – | ΔG | -7.5 ± 0.2 kcal/mol |

For quick reference, copied from above:
| Structure (SMILES) | tested on | test | system | setting | scale | endpoint | result |
| --- | --- | --- | --- | --- | --- | --- | --- |
| O=C(O)CNc1ccc2nncn2n1 | USP13 ZnF-UBD domain | – | – | – | – | Kd | 780 µM |
| N[C@H](COP(=O)(O)O)Cc1c[nH]cn1 | Gamma1 | substrate, coupled phosphate release | – | – | – | Km | 69 ± 10 µM |
| O=C(COP(=O)(O)O)[C@@H](O)[C@H](O)[C@H](O)COP(=O)(O)O | Phosphomannomutase 2 (PMM2, Homo sapiens, UniProt O15305) | thermal proteome profiling | HepG2 cell lysate | concentration not given, 57 over 37 °C | relative to: compound over control | thermal stability ratio | 3.56 and 5.43 and 5.38 |
